{"data": "Experimental data collected from several papers", "note": "Lines come from different studies, so protocols differ. ± gives the spread as reported."}
{"SMILES": "O=C(O)CCCN1CCN2CCN(CC1)CC(=O)[O][Al]([18F])[O]C(=O)C2", "system": "Sprague-Dawley rat renal pedicle ligation, spleen, heart and lung", "conditions": "dose not given, 60 min", "tissue uptake": "< 1%"}
{"SMILES": "O=C(c1ccc(F)cc1)C1CCN(C2Cc3c(cccc3OCC[18F])CC2O)CC1 (single isomer, unassigned; (-))", "system": "Sprague-Dawley rat, male, liver", "conditions": "intravenous, dose not given, 60 min", "tissue uptake": "0.456 ± 0.122 %ID/g"}
{"SMILES": "CN(C)c1ccc(C(=O)NCCCCN2CCN(c3ccccc3O[11CH3])CC2)cc1", "system": "male Sprague Dawley rat, muscle", "conditions": "iv, 5 min", "how to read": "baseline: untreated", "tissue uptake": "0.062 ± 0.012 %ID/g"}
{"SMILES": "COc1cc2ccnc(Cc3ccc(O[11CH3])c(OC)c3)c2cc1OC", "system": "Sprague-Dawley rat, brain", "conditions": "intravenous, 5 min", "tissue uptake": "0.154 ± 0.013 %ID/g"}
{"SMILES": "CCN(CC)c1ccc2c(-c3ccccc3C(=O)OCCC[18F])c3ccc(=[N+](CC)CC)cc-3oc2c1", "system": "rat, gut", "conditions": "dose not given, 60 min post injection", "tissue uptake": "2.53 ± 0.67 %ID/g"}
{"SMILES": "CCNc1cc2[o+]c3cc(NCC)c(C)cc3c(-c3ccccc3C(=O)OCCOCC[18F])c2cc1C", "system": "rat, heart", "conditions": "15 min", "tissue uptake": "1.3 %ID/g"}
{"SMILES": "[11CH3]n1c(=O)n(CCCO)c(=O)c2c1nc(Oc1cccc(OC(F)(F)F)c1)n2Cc1ccc(Cl)cc1", "system": "Sprague Dawley rat, tissues other than liver", "conditions": "60 min", "tissue uptake": "< 1 %ID/g"}
{"SMILES": "COc1ccc(NC(=O)Cn2c(=O)c3ccccc3n(CC(=O)Nc3cc([125I])c(OC)cc3OC)c2=O)cc1", "system": "Wistar rat (normal), thyroid", "conditions": "intravenous, 0.5 h", "tissue uptake": "0.53 ± 0.09 %ID/g"}
{"SMILES": "CCN(CC)c1ccc2c(-c3ccccc3C(=O)OCCOCC[18F])c3ccc(=[N+](CC)CC)cc-3oc2c1", "system": "rat, skin", "conditions": "60 min", "tissue uptake": "0.36 ± 0.04 %ID/g"}
{"note": "For quick reference, copied from above:"}
{"SMILES": "CCN(CC)c1ccc2c(-c3ccccc3C(=O)OCCOCC[18F])c3ccc(=[N+](CC)CC)cc-3oc2c1", "system": "rat, skin", "conditions": "60 min", "tissue uptake": "0.36 ± 0.04 %ID/g"}
